Measurements collected from several papers.
Numbered parts are unrelated; each lists some results of a single study. Changes are numbered by the printed parent chain.

Block 1 — technique: protein-binding microarray; molecule type: double-stranded DNA, one strand shown; matrix: in vitro; tested at: 250 nM; notes: 60-bp whole probe; added: salmon DNA 0.4 mg/ml; reference: random background probes; reading: higher = stronger binding; quantity: log fluorescence; shared flanks, not repeated: GCCTAGCAC … GTCTTGATTCGCTTGACGCTGCTG
Target: Interferon regulatory factor 7, full length, phosphomimetic (IRF7, Homo sapiens, UniProt Q92985, residues 1-503, S101K/S471D/S472D/S475D/S476D/S477D/S483D/S484D/S487D)
Chain of UniProt Q92985 (whole entry, unmodified, looked up): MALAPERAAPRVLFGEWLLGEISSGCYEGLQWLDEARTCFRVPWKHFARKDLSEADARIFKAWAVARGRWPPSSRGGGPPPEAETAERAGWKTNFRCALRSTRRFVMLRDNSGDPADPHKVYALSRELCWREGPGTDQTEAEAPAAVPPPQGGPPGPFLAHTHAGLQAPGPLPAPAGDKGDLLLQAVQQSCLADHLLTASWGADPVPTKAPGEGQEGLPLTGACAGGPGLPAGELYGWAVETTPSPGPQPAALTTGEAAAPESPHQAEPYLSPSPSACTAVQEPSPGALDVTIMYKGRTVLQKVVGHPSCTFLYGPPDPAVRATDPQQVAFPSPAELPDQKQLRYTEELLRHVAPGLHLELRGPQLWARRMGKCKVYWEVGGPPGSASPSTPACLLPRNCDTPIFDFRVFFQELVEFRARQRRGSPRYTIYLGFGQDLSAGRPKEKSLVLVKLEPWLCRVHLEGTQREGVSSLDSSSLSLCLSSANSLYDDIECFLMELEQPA
Oligonucleotide = TCAGCTCACGCTTTGGAACTGTGCTAG; result = -0.351 z-score
Oligonucleotide = GACGGTCTCCTACTGCTAACGTGCTAG; result = -0.202 z-score
Oligonucleotide = TTAGGATTCCTTTTCCTTTAGTGCTAG; result = 2.5 z-score
Oligonucleotide = TTAGATACCGGGTTTCGATTAGTGCTA; result = 7.12 z-score
Oligonucleotide = TCAGACATCTTCATCAAACTGTGCTAG; result = 0.0506 z-score
Oligonucleotide = CTTCATGTGCCTTTATATACGTGCTAG; result = -0.312 z-score
Oligonucleotide = GACGATTTCAGTGCCGAGACGTGCTAG; result = -0.0584 z-score
Oligonucleotide = GACGGTTTCGGTTTCGGGGCGTGCTAG; result = 13.8 z-score
Oligonucleotide = GACGGTATCGGGACTGGTGACGTGCTA; result = -0.254 z-score
Oligonucleotide = AGACTTTTTTCAGACCTGTCGTGCTAG; result = 0.337 z-score
Oligonucleotide = CCGAGTCCCTATCTCCTCACGTGCTAG; result = 1.09 z-score
Oligonucleotide = TCATATATCTGAACCGCACTGTGCTAG; result = 0.733 z-score
Oligonucleotide = TTAGGCCTCCTTCTCCTTTAGTGCTAG; result = 0.683 z-score
Oligonucleotide = AACGAACTGGGGTATCGAGACGTGCTA; result = -0.492 z-score
Oligonucleotide = AGTGGCCCAGGGCATCCCCTGTGCTAG; result = -0.44 z-score
Oligonucleotide = GACGGACTGCTTTTACTGACGTGCTAG; result = -0.363 z-score
Oligonucleotide = TATTCCCCATCACTCACTCTGTGCTAG; result = 3.05 z-score
Oligonucleotide = TCACCTCTAGGTCTTCTACTGTGCTAG; result = -0.0127 z-score
Oligonucleotide = TTAGGACTGGGGGATCGGTTAGTGCTA; result = 0.75 z-score
Oligonucleotide = GACGGTCTCGGACTGGGCACGTGCTAG; result = -0.192 z-score
Oligonucleotide = TCAATCTTATGATATATAACTGTGCTA; result = 0.134 z-score
Oligonucleotide = TTTATTTATTTATTTATTTAGTGCTAG; result = 0.984 z-score
Oligonucleotide = GACGGTATCCTTATCCTGCCGTGCTAG; result = 0.0803 z-score
Oligonucleotide = TTAGGTATCGCGACTGGGTTAGTGCTA; result = -0.503 z-score
Oligonucleotide = AGACAAGCATTTGGTGATGCGTGCTAG; result = -0.901 z-score

Block 2 — technique: RNA Bind-n-Seq; molecule type: RNA; matrix: in vitro; tested at: 365 nM; reference: no-protein control; reading: higher = stronger binding; quantity: RBNS enrichment (R)
Target: RNA binding protein fox-1 homolog 2, RRM domain, GST-SBP tag (RBFOX2, Homo sapiens, UniProt O43251-10, residues 100-194)
Notes: natural RNA segment, single round, ends assumed
Shared flanks, not repeated: GGGAGUUCUACAGUCCGACGAUC … UGGAAUUCUCGGGUGCCAA
Target sequence (chain): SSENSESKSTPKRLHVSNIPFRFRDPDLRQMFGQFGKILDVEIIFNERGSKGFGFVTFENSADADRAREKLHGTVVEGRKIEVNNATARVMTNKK
Oligonucleotide = AUGUUUGUGGUGGGGCCUCAUGGUGCCUAGGAGGAGAUAAAGAUGAGGAGGUUUUUCCUUAUUGUAUAAAUGAAUAUUUGUAUGAUUAAAUUAACACACACACCAAAAAA; result = 0.41
Oligonucleotide = AUUUGCUCAUAAAGCAUUUGGAUACUAAGCCAUUAUUUGCCAUUUUGGGUACUUUAUACAAAGAAAAUUCAGCCCUACCCUGCAUAAUUUGAAGACACAGCAGAAAGGGG; result = 0.822
Oligonucleotide = AACUCUUUUGGUGUCAUUGGAUGUUUCAUUUUUGACACUAAUUUUUUCUGGACAAACUCUUUAUGUGUUUUUCCCAAGAAUAGUUAUCUACUUCCUGGAGGCAAAAUCCU; result = 0.368
Oligonucleotide = GCAUGUUUUAGAAGCUUGCCUCACAGACUUCCAUGCCUCUCCAUUCAGCCGAUGACUUCAGGGUGUCAAACUGUUUUAAUUUUUCAAACAAAUGGAACAGAAGCCAUUGU; result = 0.83
Oligonucleotide = GAAUUGCGGUCGUCAAAACAAAACAAAACAAACAAAAAAAAACAAUCUAGCCUAGCUGGCCUUAUUUGGGAAGCGUAACUGCUUUUAGCAUAUGGGAGUAUUUUUUCACA; result = 0.489
Oligonucleotide = AUGGACAUCUUACACCCGGUGGUCAAGUGUGUAAUAAACUUGAGCAUUCGAAUGGGAGAAAAAGCAAAUCGCACAAUGACAUAUUUUGAGUAAUAACCGUAUUUUUCACA; result = 0.642
Oligonucleotide = CUCCCAGGAAACCAGGCAAGGGCCCGCCAUCCUAGUGAGGCAGGCCACCGCACCUUUCCACUUCUCUUCCCCAUGAUUCCGAAGAUUGGAUUUUCCUUUUCAGGAUGCAC; result = 0.267
Oligonucleotide = GAGCUGUGUUAAACCUUAACAUGAGACUCAUAUAUUCAGGGUUACAUGAGUUACUUUUAUAAAUCGAUGACCCCCCACCCCCACCCUCACGUCUUACUCUGAGGUGUGUG; result = 0.397
Oligonucleotide = ACUUCUUCCUGCCUUGGUUUCCCCGUCAGAAAUGGGGAACAGUGGUAGCUACCUCAUAACUUGUAAAGAAUCCAAUGAAUUAAAACACAGGUCUCAGUAUUAGCUUGUAU; result = 0.381
Oligonucleotide = UUUCCAAAGGUUAGGGAAGAUUCCAAUUAAAUUUAUGCCUUAUAAAAUUAUGUUGUAGAAAAAAAAUCAACCUCUCCCAGGUGCAUUAAGAAAUAAGAAUUCCCAGGGUU; result = 0.882
Oligonucleotide = GACAGACUUUGGUUGCUGUAUUCAAGUAUUUGGAUUAUGACUGUGGAGGAGGGCUUGCUUAAGAUAUGUGGUUGUGUUUUUUUGUGGAAAAGUAAGGAGUUAGGUGGCUU; result = 4.09
Oligonucleotide = GCCCAAUGCAAAAUCGAUGAAAUGGGGAGUUCUCUGGGCCAGGCCACAUUCACAUUCCCCUCCCCCUGUGGUCCAGUGAAGCCUCCGGACCCCAGGCUCUGCUCUGCCCU; result = 0.356

Block 3 — technique: universal PBM; molecule type: double-stranded DNA, one strand shown; matrix: in vitro; tested at: 600 nM; reading: higher = stronger binding; quantity: E-score
Target: Sal-like protein 4, full length isoform A (SALL4, Homo sapiens, UniProt Q9UJQ4, residues 1-1053)
Chain of UniProt Q9UJQ4 (whole entry, looked up): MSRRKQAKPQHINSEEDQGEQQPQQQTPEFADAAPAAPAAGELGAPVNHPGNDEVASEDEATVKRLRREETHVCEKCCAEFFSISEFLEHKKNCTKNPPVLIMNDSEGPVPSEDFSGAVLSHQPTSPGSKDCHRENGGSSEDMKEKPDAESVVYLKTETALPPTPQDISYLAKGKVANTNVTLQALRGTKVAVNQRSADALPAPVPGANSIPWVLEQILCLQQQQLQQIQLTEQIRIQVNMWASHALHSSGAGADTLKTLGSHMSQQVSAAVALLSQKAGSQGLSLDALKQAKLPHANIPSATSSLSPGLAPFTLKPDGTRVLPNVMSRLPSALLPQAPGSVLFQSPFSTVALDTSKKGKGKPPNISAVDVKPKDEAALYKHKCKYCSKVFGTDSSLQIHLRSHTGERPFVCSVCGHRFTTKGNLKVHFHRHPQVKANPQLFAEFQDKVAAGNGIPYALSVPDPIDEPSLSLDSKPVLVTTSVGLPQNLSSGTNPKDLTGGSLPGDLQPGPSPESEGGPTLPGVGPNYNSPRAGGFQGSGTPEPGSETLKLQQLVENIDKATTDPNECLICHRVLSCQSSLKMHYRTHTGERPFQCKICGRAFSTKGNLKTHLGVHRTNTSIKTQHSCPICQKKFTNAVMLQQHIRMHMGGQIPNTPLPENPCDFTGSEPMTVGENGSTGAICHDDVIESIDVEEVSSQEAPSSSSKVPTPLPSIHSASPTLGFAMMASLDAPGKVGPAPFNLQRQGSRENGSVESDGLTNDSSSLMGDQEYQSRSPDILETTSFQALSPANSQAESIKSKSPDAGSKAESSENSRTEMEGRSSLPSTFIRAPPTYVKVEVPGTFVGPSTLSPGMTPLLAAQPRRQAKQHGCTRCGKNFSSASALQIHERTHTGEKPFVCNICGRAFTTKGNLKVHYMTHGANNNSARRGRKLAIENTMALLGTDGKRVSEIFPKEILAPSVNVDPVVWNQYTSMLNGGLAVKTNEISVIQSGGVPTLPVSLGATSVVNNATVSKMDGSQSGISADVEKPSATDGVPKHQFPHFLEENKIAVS
Notes: 8-mer, flanks averaged, mean of replicates
Oligonucleotide = ATCCATGA; result = 0.0349
Oligonucleotide = ACCATCCT; result = 0.0996
Oligonucleotide = CCATGGGG; result = -0.303
Oligonucleotide = CATTCTTA; result = 0.158
Oligonucleotide = GCAGAGCC; result = -0.263
Oligonucleotide = TCAGAGGA; result = 0.0227
Oligonucleotide = GCAAGAAA; result = 0.0828
Oligonucleotide = AATGATGG; result = 0.142
Oligonucleotide = ATAGCCTG; result = -0.00139
Oligonucleotide = GTTCCGCA; result = -0.0715
Oligonucleotide = ATGAGGGA; result = 0.0545
Oligonucleotide = ACTATTGG; result = 0.0501
Oligonucleotide = CCTGGTCG; result = -0.286
Oligonucleotide = AGACTACT; result = 0.0835
Oligonucleotide = CATGATAC; result = 0.179
Oligonucleotide = AAGAGGCA; result = -0.0551
Oligonucleotide = AGAACGTG; result = -0.126
Oligonucleotide = AATTATCT; result = 0.324

Block 4 — target: CRIPT, C-terminal peptide; technique: DHFR complementation, deep sequencing; matrix: yeast; reference: wild type; reading: higher = weaker binding; quantity: binding free energy change
Notes: single substitutions, model-inferred values
Starting sequence: ERBIN, PDZ domain 1 (human); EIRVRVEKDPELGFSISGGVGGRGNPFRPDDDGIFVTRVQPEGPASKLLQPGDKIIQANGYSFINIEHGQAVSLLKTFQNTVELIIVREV; partner TKNYKQTSV
Change = T77C; result = 0.0717 kcal/mol
Change = I66K; result = 0.152 kcal/mol
Change = D31A; result = 0.817 kcal/mol
Change = T81P; result = 0.0767 kcal/mol
Change = K54Q; result = 0.0811 kcal/mol
Change = P29K; result = 0.244 kcal/mol
Change = L84K; result = 1.04 kcal/mol
Change = G18M; result = 1.05 kcal/mol
Change = I86Q; result = 1.04 kcal/mol
Change = G33K; result = 0.632 kcal/mol
Change = L74D; result = 0.523 kcal/mol
Change = N59W; result = 0.43 kcal/mol
Change = V6F; result = 0.949 kcal/mol
Change = Q40N; result = 0.0955 kcal/mol
Change = S62D; result = 0.09 kcal/mol
Change = H68I; result = 1.39 kcal/mol
Change = G18H; result = 1.57 kcal/mol
Change = K76A; result = 0.925 kcal/mol
Change = V20D; result = 0.348 kcal/mol

Block 5 — target: CCNE1, cyclin fold, Cln2 fusion (human); technique: yeast growth competition, sequencing; matrix: yeast; notes: strong parent motif; reference: not given; reading: higher = stronger binding; quantity: normalised enrichment score
Starting sequence: PKN2 docking peptide (human); VSAVRKLDFSDTM
Change = R5T; result = 0.328
Change = R5E; result = 0.229
Change = D8I; result = 4.5
Change = S2R; result = 5.56
Change = R5G; result = -0.0551
Change = F9T; result = -0.213
Change = D11V; result = 5.11
Change = A3C; result = 5.21
Change = T12L; result = 5.88
Change = R5F; result = 0.323
Change = S10Y; result = 4.35
Change = K6A; result = 3.55
Change = D8Q; result = 4.32
Change = T12I; result = 5.85
Change = T12H; result = 5.57
Change = V4H; result = 1.18
Change = D8L; result = 3.21
Change = S2V; result = 3.44
Change = T12R; result = 5.4
Change = D11P; result = 5.3
Change = D8F; result = 4.53
Change = T12A; result = 5.77
Change = R5Y; result = 0.46
Change = T12N; result = 5.65
Change = D8R; result = 2.59

Mixed results
Substance = PhoQ, residues 284 288 289 292 302 303 SNGLAW; target = PhoP, residues 12 14 15 18 19 NHFIF (Escherichia coli, UniProt P23836); test = Sort-seq, measured: YFP reporter; system = E. coli; setting = PhoQ-PhoP variant library, added: 10 µM Mg2+; how to read = reference: high Mg2+ state, higher = stronger signaling; quantity = fold induction; result = 13

Some of these lines once more (block 1):
Oligonucleotide = TCAGCTCACGCTTTGGAACTGTGCTAG; result = -0.351 z-score
Oligonucleotide = TCAATCTTATGATATATAACTGTGCTA; result = 0.134 z-score
Oligonucleotide = TCACCTCTAGGTCTTCTACTGTGCTAG; result = -0.0127 z-score
Oligonucleotide = GACGGTATCCTTATCCTGCCGTGCTAG; result = 0.0803 z-score
Oligonucleotide = AACGAACTGGGGTATCGAGACGTGCTA; result = -0.492 z-score
Oligonucleotide = TTAGGATTCCTTTTCCTTTAGTGCTAG; result = 2.5 z-score
Oligonucleotide = TTAGATACCGGGTTTCGATTAGTGCTA; result = 7.12 z-score
Oligonucleotide = GACGGTTTCGGTTTCGGGGCGTGCTAG; result = 13.8 z-score
Oligonucleotide = GACGATTTCAGTGCCGAGACGTGCTAG; result = -0.0584 z-score
Oligonucleotide = AGTGGCCCAGGGCATCCCCTGTGCTAG; result = -0.44 z-score
